Experimental data gathered from unrelated publications.
Numbers after ± are the reported error. In brackets after ≈: the same amount, converted by molar mass.

For `COC(=O)N[C@H](C(=O)N1CCC[C@H]1C(=O)Nc1ccc([C@@H]2CC[C@@H](c3ccc(NC(=O)[C@@H]4CCCN4C(=O)[C@@H](NC(=O)OC)C(C)C)cc3)N2c2ccc(C(C)(C)C)cc2)cc1)C(C)C`, the Cmax was 123 ng/mL (healthy human volunteers, plasma; oral, dose not given, rosuvastatin interaction study; baseline: given without rosuvastatin).
`Clc1ccc(Cl)c(-c2c(Cl)ccc(Cl)c2Cl)c1Cl` gave an enantiomeric fraction of 0.78 ± 0.01 (wild-type mice, female, whole blood; oral, 6.63 mg/kg single, 48 h, with: racemic dose).
`CC[C@H](C)[C@H](NC(=O)[C@H](CC(C)C)NC(=O)[C@H](Cc1c[nH]c2ccccc12)NC(=O)[C@H](CCC(N)=O)NC(=O)[C@@H](NC(=O)[C@H](Cc1ccccc1)NC(=O)[C@H](C)NC(=O)[C@H](CCCCNC(=O)COCCOCCNC(=O)COCCOCCNC(=O)CC[C@H](NC(=O)CCCCCCCCCCCCCCCCCCC(=O)O)C(=O)O)NC(=O)[C@H](CCC(N)=O)NC(=O)[C@H](C)NC(=O)[C@@H](NC(=O)[C@H](CCCCN)NC(=O)[C@H](CC(=O)O)NC(=O)[C@H](CC(C)C)NC(=O)C(C)(C)NC(=O)[C@@H](NC(=O)[C@H](CO)NC(=O)[C@H](Cc1ccc(O)cc1)NC(=O)[C@H](CC(=O)O)NC(=O)[C@H](CO)NC(=O)[C@@H](NC(=O)[C@H](Cc1ccccc1)NC(=O)[C@@H](NC(=O)CNC(=O)[C@H](CCC(=O)O)NC(=O)C(C)(C)NC(=O)[C@@H](N)Cc1ccc(O)cc1)[C@@H](C)O)[C@@H](C)O)[C@@H](C)CC)[C@@H](C)CC)C(C)C)C(=O)N[C@@H](C)C(=O)NCC(=O)NCC(=O)N1CCC[C@H]1C(=O)N[C@@H](CO)C(=O)N[C@@H](CO)C(=O)NCC(=O)N[C@@H](C)C(=O)N1CCC[C@H]1C(=O)N1CCC[C@H]1C(=O)N1CCC[C@H]1C(=O)N[C@@H](CO)C(N)=O` gave a CL/F of 0.892 mL/min (human, end-stage renal disease, plasma; subcutaneous, 5 mg single dose, geometric mean).
`Cc1cc2c(C(C)C)c(O)c(O)c(C=O)c2c(O)c1-c1c(C)cc2c(C(C)C)c(O)c(O)c(C=O)c2c1O` has a remaining compound of ~74.5% (HPLC; human plasma; 24 h, 4 °C).
The tissue uptake of `CN[C@@](C)(C[18F])C(=O)O` is reported as 3.9 ± 0.7 %ID/g (SCID mouse MDA-MB-468 xenograft, heart; 60 min, post injection).
Under “body weight change”, `N#C[C@]1(CO)O[C@@H](n2cc(F)c3c(N)ncnc32)C[C@@H]1O` is recorded as “no effect” (HBV-infected human-liver-chimeric mice; oral, 1 mg/kg/day, 14 days).
With `NC(=O)c1nc(F)c[nH]c1=O` the solubility was 307 µg/mL (≈ 1950 µM) (UV-Vis spectrophotometry; supercritical CO2; 120 min, 338 K, 18 MPa, 651.18 kg/m^3).
`C=C(C)[C@@H]1CCC(C)=C[C@H]1c1c(O)cc(CCCCC)cc1O` has an average Cmax of 132 ± 82.5 ng/mL (human, plasma; oral, 100 to 800 mg, high dose).
`[123I]c1cncc(OC[C@@H]2CCN2)c1` gave a tissue/plasma ratio of 10.8 (SPECT; human, parietal lobe; intravenous bolus, 2.1 mCi; baseline: tissue over plasma).
`Clc1ccc(-c2c(Cl)ccc(Cl)c2Cl)c(Cl)c1` has an enantiomeric fraction of 0.43 (rat liver microsomes; 50 µM, 30 min, remaining parent PCB).
For `CS(=O)(=O)CCCn1c(Cn2c(=O)n(CC(F)(F)F)c3ccncc32)cc2cc(Cl)ccc21`, “patients with high MCH” read 0% (RSV-infected infants; concentration not given, low dose cohorts).
For `CC(=O)N[C@H](CCCCNC(=O)C(C)F)C(=O)N[C@@H](CS)C(=O)N[C@@H](CS)C(=O)N[C@@H](CCC(=O)O)C(=O)N[C@@H](Cc1c[nH]cn1)C(=O)N[C@H](Cc1ccccc1)C(=O)N[C@@H](CCCNC(=N)N)C(=O)N[C@@H](Cc1c[nH]c2ccccc12)C(=O)N[C@@H](CS)C(=O)N[C@@H](CCCNC(=N)N)C(=O)N1CCC[C@H]1C(=O)N[C@H](C(N)=O)C(C)C` (stereo partly drawn) [fluorine-18 labelled], “tumour to blood ratio” read 3.11 ± 1.3 (Foxn1 nude mouse, A375M xenograft; intravenous, 2 h).

Some of these lines once more:
`Cc1cc2c(C(C)C)c(O)c(O)c(C=O)c2c(O)c1-c1c(C)cc2c(C(C)C)c(O)c(O)c(C=O)c2c1O` has a remaining compound of ~74.5% (HPLC; human plasma; 24 h, 4 °C).
The tissue uptake of `CN[C@@](C)(C[18F])C(=O)O` is reported as 3.9 ± 0.7 %ID/g (SCID mouse MDA-MB-468 xenograft, heart; 60 min, post injection).
